Published values of several laboratories.
Compare with care: the assays were run in different laboratories. ± marks the error that the study gave.
Cell line: K562

With `COc1cc(C2Oc3ccc(C=C4Oc5cc(O)ccc5C4=O)cc3OC2CO)cc(OC)c1O` (stereo not drawn) the selectivity ratio was 3.32 (MTT; 72 h; baseline: IC50 MRC5 over IC50 K562).
The inhibition of `COc1cc2c(c(OC)c1OC)CC(Cc1ccc3c(c1)OCCO3)C2` (stereo not drawn) is reported as 6.73% (cell growth or viability, CCK-8; 1 µM, 72 h).
With `CC(=C(c1ccc(O)cc1)c1ccc(Cl)cc1)c1ccc(Cl)cc1` the GI50 was 380 nM (cell growth or viability).
For `CC/C=C\C/C=C\C/C=C\C/C=C\C/C=C\C/C=C\CCC(=O)Nc1ccn(C2OC(CO)C(O)C2(F)F)c(=O)n1` (stereo not drawn), the GI50 was 67.4 nM (cell growth or viability, SRB).
`CC(Cc1ccc(Cl)cc1)=C(c1ccc(Cl)cc1)c1ccc(OCCN(C)C)cc1` has a GI50 of 980 nM (cell growth or viability).
With `COc1cc(O)c(C(=O)/C=C/c2ccc(O)cc2)c(OC)c1` the IC50 was 13 µM (cell viability).
The inhibition of `COc1ccc2c(c1)/C(=N\Nc1nnc3n1N=C(c1ccccc1)CS3)C(=O)N2` is reported as 85% (cell growth or viability, SRB; 10 µM).
`COc1cc(/C=C/C(=O)c2ccc(O)cc2O)ccc1O` gave an IC50 of 29 µM (cell viability).
The growth of `CC(=O)OC[C@H]1O[C@@H](Sc2sc(C(=O)c3ccc(C)cc3)c(N)c2-c2nc3ccccc3s2)[C@H](OC(C)=O)[C@@H](OC(C)=O)[C@@H]1OC(C)=O` is reported as 68.5% (SRB; 10 µM, 48 h).
With `O=C(/C=C/c1ccccc1)c1ccccc1` the IC50 was 14 µM (cell viability).
`COc1ccc(CN2C(=O)C(=O)c3cc(NC(C)=O)ccc32)cc1` has an apoptotic cells of 51.1% (Annexin V/PI; 1 µM, 48 h).
`CC(=O)OC[C@H]1O[C@@H](Sc2sc(C(=O)c3ccc(Br)cc3)c(N)c2-c2nc3ccccc3s2)[C@H](OC(C)=O)[C@@H](OC(C)=O)[C@@H]1OC(C)=O` has a growth of 66.4% (SRB; 10 µM, 48 h).
For `O=C(/C=C/c1ccccc1O)c1ccccc1`, the IC50 was 2 µM (cell viability).
`O=C(CSc1nc2ccccc2s1)Nc1nonc1[N+](=O)[O-]` gave a GI50 of 27600 nM (cell growth or viability, ATP luminescence).
With `O=C(/C=C/c1ccc(O)cc1)c1ccc(O)cc1O` the IC50 was 32 µM (NF-κB activity, inhibitor, luciferase; TNF-stimulated).
`COc1ccc(C2=Nn3c(NN=C4C(=O)N(Cc5ccccc5)c5ccc(Cl)cc54)nnc3SC2)cc1` has an inhibition of 53% (cell growth or viability, SRB; 10 µM).
`C(=C/c1ccccc1)/c1ccccc1` gave an EC50 of 410 µM (apoptosis, Hoechst nuclear staining; 24 h, 50% apoptosis induction).
`COc1ccc(C2=Nn3c(NN=C4C(=O)N(C)c5ccc(Br)cc54)nnc3SC2)cc1` gave an inhibition of 33% (cell growth or viability, SRB; 10 µM).
`CC(C)CCCC(C)C1CCC2C3CC=C4CC(OC(=O)CCC(=O)NCCCCCCNC(=O)O[C@H]5[C@@H](O)[C@H](n6cnc7c(=O)[nH]c(N)nc76)O[C@@H]5COP(=O)(O)OP(=O)(O)OP(=O)([S-])OC[C@H]5O[C@@H](n6c[n+](C)c7c(O)nc(N)nc76)[C@H](O)[C@@H]5O)CCC4(C)C3CCC12C` (mixture of isomers) gave an apoptotic cells of 30.5 ± 6.5% (annexin V/PI flow cytometry; 5 µM, 20 h).
With `COc1ccc(/C=C/C(=O)c2ccccc2)cc1` the IC50 was 35 µM (cell viability).
With `COc1cc(/C=C/C(=O)/C=C(O)/C=C/c2ccc(OCC(=O)N3CCOCCOCCOCCOCCOCC3)c(OC)c2)ccc1OCC(=O)N1CCOCCOCCOCCOCCOCC1` the inhibition was 34.1% (cell growth or viability, SRB; 5 µM).

Repeated from above:
The inhibition of `COc1ccc2c(c1)/C(=N\Nc1nnc3n1N=C(c1ccccc1)CS3)C(=O)N2` is reported as 85% (cell growth or viability, SRB; 10 µM).
`COc1cc(/C=C/C(=O)c2ccc(O)cc2O)ccc1O` gave an IC50 of 29 µM (cell viability).
The growth of `CC(=O)OC[C@H]1O[C@@H](Sc2sc(C(=O)c3ccc(C)cc3)c(N)c2-c2nc3ccccc3s2)[C@H](OC(C)=O)[C@@H](OC(C)=O)[C@@H]1OC(C)=O` is reported as 68.5% (SRB; 10 µM, 48 h).
